Measured values collected from several papers.
Numbered parts are unrelated; each lists some results of a single study. “And” joins repeats or separate records; there may be more than shown.
UniProt P10721, sequence (whole entry, unmodified, looked up): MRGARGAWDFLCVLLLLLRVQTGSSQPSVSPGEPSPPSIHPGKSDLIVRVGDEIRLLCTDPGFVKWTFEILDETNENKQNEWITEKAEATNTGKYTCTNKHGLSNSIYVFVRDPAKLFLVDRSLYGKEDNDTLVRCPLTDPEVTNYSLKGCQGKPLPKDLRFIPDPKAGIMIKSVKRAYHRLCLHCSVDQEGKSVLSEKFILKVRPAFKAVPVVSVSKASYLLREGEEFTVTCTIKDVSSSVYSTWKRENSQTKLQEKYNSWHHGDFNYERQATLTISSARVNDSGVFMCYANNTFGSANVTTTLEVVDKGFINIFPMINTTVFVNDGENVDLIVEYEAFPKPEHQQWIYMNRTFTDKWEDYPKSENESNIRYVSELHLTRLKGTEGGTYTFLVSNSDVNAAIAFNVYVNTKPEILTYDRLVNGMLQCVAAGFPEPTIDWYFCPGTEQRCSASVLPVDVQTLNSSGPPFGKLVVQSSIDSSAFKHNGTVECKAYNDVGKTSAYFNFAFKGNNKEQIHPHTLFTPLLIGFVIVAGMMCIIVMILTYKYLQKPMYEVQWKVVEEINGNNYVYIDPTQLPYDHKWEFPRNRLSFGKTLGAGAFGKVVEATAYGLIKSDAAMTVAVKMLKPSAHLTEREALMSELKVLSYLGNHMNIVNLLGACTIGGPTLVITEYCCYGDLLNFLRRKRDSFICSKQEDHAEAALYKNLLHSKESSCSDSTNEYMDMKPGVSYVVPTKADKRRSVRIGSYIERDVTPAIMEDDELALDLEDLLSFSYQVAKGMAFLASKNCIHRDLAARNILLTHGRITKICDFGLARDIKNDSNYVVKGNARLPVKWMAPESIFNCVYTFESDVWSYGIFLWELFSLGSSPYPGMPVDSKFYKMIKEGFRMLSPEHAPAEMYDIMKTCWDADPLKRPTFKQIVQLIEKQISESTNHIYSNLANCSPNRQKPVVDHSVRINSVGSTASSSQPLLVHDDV
UniProt P78362, sequence (whole entry, looked up): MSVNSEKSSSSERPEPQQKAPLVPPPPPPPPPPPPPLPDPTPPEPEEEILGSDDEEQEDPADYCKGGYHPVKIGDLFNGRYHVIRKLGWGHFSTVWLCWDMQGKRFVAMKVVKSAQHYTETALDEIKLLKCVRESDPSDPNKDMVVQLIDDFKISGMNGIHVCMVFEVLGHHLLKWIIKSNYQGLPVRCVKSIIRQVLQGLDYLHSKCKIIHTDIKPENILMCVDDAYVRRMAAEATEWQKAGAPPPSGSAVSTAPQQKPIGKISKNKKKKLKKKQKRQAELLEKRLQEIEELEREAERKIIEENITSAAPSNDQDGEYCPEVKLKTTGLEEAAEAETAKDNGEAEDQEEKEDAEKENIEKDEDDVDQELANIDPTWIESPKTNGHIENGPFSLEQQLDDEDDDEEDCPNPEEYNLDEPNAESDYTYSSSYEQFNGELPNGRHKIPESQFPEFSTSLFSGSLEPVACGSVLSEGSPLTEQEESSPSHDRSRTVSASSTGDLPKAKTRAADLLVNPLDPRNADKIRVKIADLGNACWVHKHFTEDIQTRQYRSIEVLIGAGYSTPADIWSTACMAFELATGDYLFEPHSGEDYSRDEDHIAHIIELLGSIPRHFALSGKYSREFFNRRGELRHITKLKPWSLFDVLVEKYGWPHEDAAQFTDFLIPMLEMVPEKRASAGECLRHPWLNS

Set 1 — read-out: cell-free assay; technique: competition with immobilised ligand; concentration: 1 µM
SMILES: O=C(Nc1cccnn1)N1CC(C/C=C/c2cncc(Oc3ccc(C(F)(F)F)cn3)n2)C1
For SRSF protein kinase 2 (SRPK2, Homo sapiens, UniProt P78362): remaining binding read 100%.
It gave 100% for remaining binding (Fibroblast growth factor receptor 4 (FGFR4, Homo sapiens, UniProt P22455)).
It gave 94% for remaining binding (Mitogen-activated protein kinase kinase kinase kinase 5 (MAP4K5, Homo sapiens, UniProt Q9Y4K4)).
Mast/stem cell growth factor receptor Kit (KIT, Homo sapiens, UniProt P10721, L576P) — remaining binding: 88%.
It gave 99% for remaining binding (Epithelial discoidin domain-containing receptor 1 (DDR1, Homo sapiens, UniProt Q08345)).
For Homeodomain-interacting protein kinase 2 (HIPK2, Homo sapiens, UniProt Q9H2X6): remaining binding read 89%.
For Rho-associated protein kinase 1 (ROCK1, Homo sapiens, UniProt Q13464): remaining binding read 82%.
The remaining binding was 100% (Activated CDC42 kinase 1 (TNK2, Homo sapiens, UniProt Q07912)).
For Ephrin type-A receptor 5 (EPHA5, Homo sapiens, UniProt P54756): remaining binding read 85%.
The remaining binding was 100% (SNF-related serine/threonine-protein kinase (SNRK, Homo sapiens, UniProt Q9NRH2)).
BDNF/NT-3 growth factors receptor (NTRK2, Homo sapiens, UniProt Q16620) — remaining binding: 77%.
The remaining binding was 100% (cGMP-dependent protein kinase 1 (PRKG1, Homo sapiens, UniProt Q13976)).
Serine/threonine-protein kinase Nek11 (NEK11, Homo sapiens, UniProt Q8NG66) — remaining binding: 100%.
For Dual specificity protein kinase CLK1 (CLK1, Homo sapiens, UniProt P49759): remaining binding read 100%.
The remaining binding was 73% (Myosin light chain kinase, smooth muscle (MYLK, Homo sapiens, UniProt Q15746)).
It gave 100% for remaining binding (Serine/threonine-protein kinase BRSK1 (BRSK1, Homo sapiens, UniProt Q8TDC3)).
For Serine/threonine-protein kinase Nek10 (NEK10, Homo sapiens, UniProt Q6ZWH5): remaining binding read 100%.
For Mast/stem cell growth factor receptor Kit (KIT, Homo sapiens, UniProt P10721): remaining binding read 80%.
Hepatocyte growth factor receptor (MET, Homo sapiens, UniProt P08581) — remaining binding: 95%.
It gave 99% for remaining binding (Receptor tyrosine-protein kinase erbB-3 (ERBB3, Homo sapiens, UniProt P21860)).

Set 2 — read-out: enzyme activity; action: inhibitor; concentration: 77 µM; relative to: untreated
Target: DNA polymerase theta, ATPase domain (POLQ, Homo sapiens, UniProt O75417)
UniProt O75417, sequence (whole entry, unmodified, looked up): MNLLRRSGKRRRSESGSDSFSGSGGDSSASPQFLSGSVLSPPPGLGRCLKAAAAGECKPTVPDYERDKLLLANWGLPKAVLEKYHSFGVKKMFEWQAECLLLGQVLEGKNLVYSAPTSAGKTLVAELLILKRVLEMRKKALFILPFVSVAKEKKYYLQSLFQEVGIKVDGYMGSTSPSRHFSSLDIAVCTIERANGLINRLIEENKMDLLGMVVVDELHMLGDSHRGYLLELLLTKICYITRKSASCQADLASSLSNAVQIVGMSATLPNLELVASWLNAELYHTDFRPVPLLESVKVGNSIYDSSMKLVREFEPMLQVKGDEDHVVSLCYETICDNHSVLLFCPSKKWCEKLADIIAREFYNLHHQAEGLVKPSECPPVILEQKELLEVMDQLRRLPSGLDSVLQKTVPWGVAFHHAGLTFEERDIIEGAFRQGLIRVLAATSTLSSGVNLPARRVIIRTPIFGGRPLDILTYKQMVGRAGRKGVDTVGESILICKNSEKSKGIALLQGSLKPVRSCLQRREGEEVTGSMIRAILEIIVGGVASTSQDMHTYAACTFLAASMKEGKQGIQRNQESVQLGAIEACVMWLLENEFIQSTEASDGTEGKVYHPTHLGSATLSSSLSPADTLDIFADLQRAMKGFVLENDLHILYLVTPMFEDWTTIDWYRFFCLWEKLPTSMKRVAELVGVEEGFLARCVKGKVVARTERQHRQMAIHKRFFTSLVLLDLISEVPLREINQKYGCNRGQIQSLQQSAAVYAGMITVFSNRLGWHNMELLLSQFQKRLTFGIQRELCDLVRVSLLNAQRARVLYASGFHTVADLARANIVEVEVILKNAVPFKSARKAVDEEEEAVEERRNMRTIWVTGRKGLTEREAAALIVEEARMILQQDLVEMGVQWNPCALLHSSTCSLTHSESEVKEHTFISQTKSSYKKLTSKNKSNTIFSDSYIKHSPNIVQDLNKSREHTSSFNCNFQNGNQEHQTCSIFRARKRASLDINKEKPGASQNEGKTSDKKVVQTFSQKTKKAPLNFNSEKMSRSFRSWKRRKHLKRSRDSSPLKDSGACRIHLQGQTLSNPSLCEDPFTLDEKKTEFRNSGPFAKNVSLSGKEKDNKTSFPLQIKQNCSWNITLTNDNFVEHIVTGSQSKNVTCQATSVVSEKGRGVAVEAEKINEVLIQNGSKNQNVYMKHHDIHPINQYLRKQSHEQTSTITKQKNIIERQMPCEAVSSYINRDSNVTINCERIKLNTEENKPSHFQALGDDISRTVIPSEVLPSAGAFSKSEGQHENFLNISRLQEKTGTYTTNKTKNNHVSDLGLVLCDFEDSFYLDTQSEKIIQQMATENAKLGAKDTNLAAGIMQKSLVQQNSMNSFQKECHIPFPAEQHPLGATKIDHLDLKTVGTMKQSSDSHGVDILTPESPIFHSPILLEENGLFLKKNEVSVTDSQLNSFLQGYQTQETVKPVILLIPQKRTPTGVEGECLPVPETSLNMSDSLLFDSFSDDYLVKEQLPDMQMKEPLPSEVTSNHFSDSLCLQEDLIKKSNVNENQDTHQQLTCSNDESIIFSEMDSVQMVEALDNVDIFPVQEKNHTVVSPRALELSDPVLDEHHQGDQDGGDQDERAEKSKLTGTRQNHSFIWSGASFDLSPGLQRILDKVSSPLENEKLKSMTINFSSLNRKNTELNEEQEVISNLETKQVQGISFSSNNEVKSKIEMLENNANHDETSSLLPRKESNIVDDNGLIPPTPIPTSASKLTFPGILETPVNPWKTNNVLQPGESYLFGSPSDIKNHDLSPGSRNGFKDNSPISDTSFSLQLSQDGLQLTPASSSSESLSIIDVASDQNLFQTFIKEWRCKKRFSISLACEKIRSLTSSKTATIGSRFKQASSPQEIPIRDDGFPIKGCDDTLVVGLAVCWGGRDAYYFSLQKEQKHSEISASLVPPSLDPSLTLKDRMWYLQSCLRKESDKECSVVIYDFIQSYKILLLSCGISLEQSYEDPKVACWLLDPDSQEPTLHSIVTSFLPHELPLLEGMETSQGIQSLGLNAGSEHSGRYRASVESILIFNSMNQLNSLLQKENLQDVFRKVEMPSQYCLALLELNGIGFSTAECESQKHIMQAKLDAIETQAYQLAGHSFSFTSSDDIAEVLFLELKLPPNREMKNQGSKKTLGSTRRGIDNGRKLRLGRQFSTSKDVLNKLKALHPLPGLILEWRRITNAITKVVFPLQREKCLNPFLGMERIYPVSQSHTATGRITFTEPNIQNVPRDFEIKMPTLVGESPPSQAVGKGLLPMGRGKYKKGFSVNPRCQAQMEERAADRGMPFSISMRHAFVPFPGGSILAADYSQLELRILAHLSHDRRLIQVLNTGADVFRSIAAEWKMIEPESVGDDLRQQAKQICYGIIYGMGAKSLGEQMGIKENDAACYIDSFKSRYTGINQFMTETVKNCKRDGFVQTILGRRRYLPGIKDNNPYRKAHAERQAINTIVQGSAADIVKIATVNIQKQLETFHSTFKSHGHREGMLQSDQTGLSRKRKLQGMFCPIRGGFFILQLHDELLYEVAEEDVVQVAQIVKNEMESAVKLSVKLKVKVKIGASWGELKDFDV
With `COc1ccccc1N1CCN(CCCCNC(=O)c2ccc3ccccc3c2)CC1` the remaining activity was 99.5%.
The remaining activity of `N#CC(C#N)=C(N)/C(C#N)=C/c1cc(O)c(O)c(O)c1` is reported as 91%.
With `Nc1ccc(S(=O)(=O)NC(=O)c2ccccc2)cc1` the remaining activity was 90.5%.
With `CC(C)c1ccc(NC(=O)Cn2cnc3c2c(=O)n(C)c(=O)n3C)cc1` the remaining activity was 81.1%.
`CCS(=O)(=O)N1CC(CC#N)(n2cc(-c3ncnc4[nH]ccc34)cn2)C1` gave a remaining activity of 101%.
`CO[C@@]1(NC(=O)C2SC(=C(C(N)=O)C(=O)O)S2)C(=O)N2C(C(=O)O)=C(CSc3nnnn3C)CS[C@@H]21` (stereo partly shown) has a remaining activity of 94.3%.
`CCOC(=O)OC(C)OC(=O)[C@@H]1N2C(=O)[C@@H](NC(=O)[C@H](N)c3ccccc3)[C@H]2SC1(C)C` (stereo partly shown) gave a remaining activity of 111%.
For `Cn1c(N2CCCCS2(=O)=O)nc(C(=O)NCc2ccc(F)cc2)c(O)c1=O`, the remaining activity was 103%.

Set 3 — read-out: enzyme activity; action: inhibitor; concentration: 0.5 µM; relative to: control
Target: Serine/threonine-protein kinase haspin (HASPIN, Homo sapiens, UniProt Q8TF76)
UniProt Q8TF76, sequence (whole entry, looked up): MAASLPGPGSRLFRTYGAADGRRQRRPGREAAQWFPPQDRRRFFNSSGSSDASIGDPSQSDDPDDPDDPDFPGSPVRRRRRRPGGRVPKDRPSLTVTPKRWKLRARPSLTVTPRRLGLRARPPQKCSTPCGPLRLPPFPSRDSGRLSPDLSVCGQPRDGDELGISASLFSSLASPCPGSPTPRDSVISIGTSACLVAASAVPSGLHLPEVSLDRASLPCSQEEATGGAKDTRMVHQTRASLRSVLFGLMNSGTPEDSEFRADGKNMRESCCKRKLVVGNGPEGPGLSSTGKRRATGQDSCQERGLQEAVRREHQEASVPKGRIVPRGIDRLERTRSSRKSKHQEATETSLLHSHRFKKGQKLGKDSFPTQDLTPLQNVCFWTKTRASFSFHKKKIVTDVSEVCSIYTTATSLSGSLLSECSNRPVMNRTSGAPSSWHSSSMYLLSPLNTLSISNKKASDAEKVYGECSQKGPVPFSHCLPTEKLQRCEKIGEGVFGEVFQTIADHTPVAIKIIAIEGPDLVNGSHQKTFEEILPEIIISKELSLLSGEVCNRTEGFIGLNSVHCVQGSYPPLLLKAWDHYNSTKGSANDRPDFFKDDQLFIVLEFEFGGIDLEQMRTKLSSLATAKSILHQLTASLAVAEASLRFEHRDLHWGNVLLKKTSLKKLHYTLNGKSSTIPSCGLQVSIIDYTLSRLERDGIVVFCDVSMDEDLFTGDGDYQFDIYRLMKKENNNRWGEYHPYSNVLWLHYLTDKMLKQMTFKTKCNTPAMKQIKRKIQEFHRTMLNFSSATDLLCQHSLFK
`O=Nc1c(-c2c(O)[nH]c3ccccc23)[nH]c2ccccc12` has a remaining activity of 65.6%.
`c1cc(-c2cnn3cc(-c4ccc(OCCN5CCCCC5)cc4)cnc23)ccn1` has a remaining activity of 64%.
The remaining activity of `N#CC(c1ccnc(NCCc2cccnc2)n1)c1nc2ccccc2s1` (stereo not shown) is reported as 31%.
With `FC(F)(F)c1ccc(/C=C/c2nc(COc3ccc(CCCCn4ccnn4)cc3)co2)cc1` the remaining activity was 105%.
The remaining activity of `C[C@@H](N)[C@H]1CC[C@H](C(=O)Nc2ccncc2)CC1` is reported as 92.4%.
The remaining activity of `CCCCc1c(-c2ccc(O)cc2)[nH]c2nccnc12` is reported as 65.3%.
The remaining activity of `O=C(O)/C=C/c1cc(Br)c(Br)c(Br)c1Br` is reported as 88.4%.
With `CC(C)(C)c1nc2c3cc[nH]c(=O)c3c3cc(F)ccc3c2[nH]1` the remaining activity was 67.2%.
With `O=c1c(-c2ccc(F)cc2)c(-c2ccncc2)[nH]n1-c1ccc(Cl)cc1` the remaining activity was 96.5%.
`Nc1nc(Nc2ccc(S(N)(=O)=O)cc2)nn1C(=S)Nc1c(F)cccc1F` has a remaining activity of 85.3%.
For `CC(C)n1cnc2c(Nc3cccc(Cl)c3)nc(NCCO)nc21`, the remaining activity was 94.7%.

Other studies, line by line
For `COc1ccc(-c2c(Nc3ccccn3)[nH]c3c(C4=CCCCC4)c(-c4ccccc4)nn3c2=O)cc1`, “apparent volume of distribution” read 213000 mL and 365000 mL and 493000 mL (human, plasma; oral, 200 mg twice daily).

For quick reference, copied from above (set 2):
For `Cn1c(N2CCCCS2(=O)=O)nc(C(=O)NCc2ccc(F)cc2)c(O)c1=O`, the remaining activity was 103%.
The remaining activity of `N#CC(C#N)=C(N)/C(C#N)=C/c1cc(O)c(O)c(O)c1` is reported as 91%.
`CCOC(=O)OC(C)OC(=O)[C@@H]1N2C(=O)[C@@H](NC(=O)[C@H](N)c3ccccc3)[C@H]2SC1(C)C` (stereo partly shown) gave a remaining activity of 111%.
`CO[C@@]1(NC(=O)C2SC(=C(C(N)=O)C(=O)O)S2)C(=O)N2C(C(=O)O)=C(CSc3nnnn3C)CS[C@@H]21` (stereo partly shown) has a remaining activity of 94.3%.
`CCS(=O)(=O)N1CC(CC#N)(n2cc(-c3ncnc4[nH]ccc34)cn2)C1` gave a remaining activity of 101%.
